Experimental data of several laboratories.
Parts stem from different laboratories: compare values within a part only. Substitutions count along the parent as printed.

Set 1
Target: Sal-like protein 4, full length isoform B (SALL4, Homo sapiens, UniProt Q9UJQ4-2, residues 1-616)
Method: universal PBM
Form: double-stranded DNA, one strand shown
Sample: in vitro
Tested at: not given
Notes: 8-mer, flanks averaged, mean of replicates
Reading: higher = stronger binding
Residues (chain): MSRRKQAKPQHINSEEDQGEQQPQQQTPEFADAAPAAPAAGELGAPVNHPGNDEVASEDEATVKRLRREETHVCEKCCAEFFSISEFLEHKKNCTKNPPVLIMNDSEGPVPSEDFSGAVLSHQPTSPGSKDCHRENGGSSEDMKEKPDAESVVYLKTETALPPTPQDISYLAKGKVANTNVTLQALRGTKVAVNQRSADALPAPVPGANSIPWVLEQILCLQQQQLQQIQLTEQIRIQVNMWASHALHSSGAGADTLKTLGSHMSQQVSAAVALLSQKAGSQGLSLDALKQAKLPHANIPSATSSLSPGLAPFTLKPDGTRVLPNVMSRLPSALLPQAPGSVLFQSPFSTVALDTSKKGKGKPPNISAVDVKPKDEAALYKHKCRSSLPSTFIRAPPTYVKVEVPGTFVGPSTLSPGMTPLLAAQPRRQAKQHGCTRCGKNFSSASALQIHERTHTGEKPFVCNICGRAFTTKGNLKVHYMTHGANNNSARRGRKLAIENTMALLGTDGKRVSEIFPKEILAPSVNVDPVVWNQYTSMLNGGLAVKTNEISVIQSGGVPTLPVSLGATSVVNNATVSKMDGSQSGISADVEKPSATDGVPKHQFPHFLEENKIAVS
Oligonucleotide | E-score
CAGTCAGA | -0.074
GAAGACGC | -0.124
CAAAATGC | 0.104
AATTATAA | 0.437
AACTTGCG | -0.219
ATCGTTAG | 0.174
GTAGTAAA | 0.256
GTGCTCCA | -0.179
GAGAAAGC | -0.0474
ACTCGACA | -0.0778
CAGCGAGC | -0.0466
CCGAGAAA | 0.0797
GTAAGGAC | -0.13
CGTAAATC | 0.0825
GAGGGAGC | -0.292
CAATTTCC | 0.0646
CGACGGTC | -0.273
AGTGGGTG | 0.00475
AAACGAAT | 0.233
GTGCAGCA | -0.192
ACCGAATG | 0.0368
CCACGGCA | -0.206
AGTCGACT | 0.159
GTAAGGAA | 0.0596
GACCGTCA | -0.0583

Set 2
Target: CCNA2, cyclin fold, Cln2 fusion (human)
Method: yeast growth competition, sequencing
Sample: yeast
Notes: strong parent motif
Baseline: not given
Reading: higher = stronger binding
Starting sequence: BRCA2 docking peptide (human); CKKRRALDFLSRL
Substitution | normalised enrichment score
CKKRRALDALSRL [F9A] | 1.79
AKKRRALDFLSRL [C1A] | 2.57
CAKRRALDFLSRL [K2A] | 2.24
CKKRRALDFLARL [S11A] | 2.11
CKARRALDFLSRL [K3A] | 3.5
CKKARALDFLSRL [R4A] | 1.31
CKKRKALDLLSRL [R5K F9L] | 1.68

Set 3
Target: Histone acetyltransferase KAT6A, winged helix 1, GST fusion (KAT6A, Homo sapiens, UniProt Q92794, residues 1-85)
Method: protein binding microarray
Form: double-stranded DNA, one strand shown
Sample: in vitro
Tested at: not given
Notes: 8-mer, flanks averaged, mean of 2 arrays, mostly near background
Baseline: not given
Reading: higher = stronger binding
Construct (chain): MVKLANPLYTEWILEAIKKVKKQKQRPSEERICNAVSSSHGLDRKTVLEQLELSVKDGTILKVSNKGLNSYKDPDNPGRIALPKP
Oligonucleotide | E-score
TGCTGGAA | -0.159
GATGTACC | -0.0871
TCTGCCAA | -0.226
CTACTGAA | -0.0705
ACAGTATC | -0.193
CGGAAAGA | 0.174
CATTCAGA | -0.155
ACTCTCGG | 0.119
CCGAGTGA | -0.0548
TACAACGA | -0.164
ACCCTGCC | -0.0948
AGCGCACG | 0.339
CATTTGTC | -0.253
CGGTGTTA | 0.157
CCTCGGGC | 0.178
AGCCACCG | 0.177
AAGATACC | 0.0336
CGAAGAAA | -0.169
AGCAGTAC | -0.00292
TAGAAGGA | 0.0666
CAAGGCGA | -0.179
ATAAACGA | -0.0209
AATCGCAC | -0.0366
CATCTAAC | -0.0151
CCGTGAGA | 0.213

Other studies, line by line
Substance | target | assay | test system | conditions | scale | measurement | value
PhoQ, residues 284 288 289 292 302 303 SCCLKL | PhoP, residues 12 14 15 18 19 TTLRV (Escherichia coli, UniProt P23836) | Sort-seq, measured: YFP reporter | E. coli | PhoQ-PhoP variant library, added: 10 µM Mg2+ | baseline: high Mg2+ state, higher = stronger signaling | fold induction | 6.73

Excerpt of the above (set 3):
Oligonucleotide | E-score
CGGAAAGA | 0.174
CATTCAGA | -0.155
ACTCTCGG | 0.119
CCGAGTGA | -0.0548
TACAACGA | -0.164
ACCCTGCC | -0.0948
